# Measurements collected from several papers.
# A part holds a random share of what one study measured.
# UniProt O94768, sequence (whole entry, looked up): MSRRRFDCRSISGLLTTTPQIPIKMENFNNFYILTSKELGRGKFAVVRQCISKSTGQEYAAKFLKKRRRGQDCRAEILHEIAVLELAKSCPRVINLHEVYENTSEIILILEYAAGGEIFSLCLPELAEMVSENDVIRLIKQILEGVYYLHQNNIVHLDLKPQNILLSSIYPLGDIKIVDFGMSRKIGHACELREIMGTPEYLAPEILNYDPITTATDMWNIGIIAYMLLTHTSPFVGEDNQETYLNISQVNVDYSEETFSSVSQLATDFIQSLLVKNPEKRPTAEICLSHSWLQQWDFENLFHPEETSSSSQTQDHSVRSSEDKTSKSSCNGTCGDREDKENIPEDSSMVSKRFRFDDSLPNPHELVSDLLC
# UniProt Q9Y6E0, sequence (whole entry, looked up): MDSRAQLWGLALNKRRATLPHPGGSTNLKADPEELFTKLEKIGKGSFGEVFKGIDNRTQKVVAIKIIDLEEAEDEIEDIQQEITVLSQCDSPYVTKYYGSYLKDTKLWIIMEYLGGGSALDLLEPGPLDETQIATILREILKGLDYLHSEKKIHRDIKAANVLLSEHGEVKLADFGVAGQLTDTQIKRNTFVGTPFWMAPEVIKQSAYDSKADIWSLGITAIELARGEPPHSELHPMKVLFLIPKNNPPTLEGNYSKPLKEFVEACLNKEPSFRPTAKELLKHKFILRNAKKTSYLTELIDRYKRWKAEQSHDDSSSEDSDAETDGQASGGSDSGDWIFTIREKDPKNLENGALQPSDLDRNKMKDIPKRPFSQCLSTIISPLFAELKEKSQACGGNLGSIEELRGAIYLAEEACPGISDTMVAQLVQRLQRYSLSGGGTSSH
# UniProt P30291, sequence (whole entry, looked up): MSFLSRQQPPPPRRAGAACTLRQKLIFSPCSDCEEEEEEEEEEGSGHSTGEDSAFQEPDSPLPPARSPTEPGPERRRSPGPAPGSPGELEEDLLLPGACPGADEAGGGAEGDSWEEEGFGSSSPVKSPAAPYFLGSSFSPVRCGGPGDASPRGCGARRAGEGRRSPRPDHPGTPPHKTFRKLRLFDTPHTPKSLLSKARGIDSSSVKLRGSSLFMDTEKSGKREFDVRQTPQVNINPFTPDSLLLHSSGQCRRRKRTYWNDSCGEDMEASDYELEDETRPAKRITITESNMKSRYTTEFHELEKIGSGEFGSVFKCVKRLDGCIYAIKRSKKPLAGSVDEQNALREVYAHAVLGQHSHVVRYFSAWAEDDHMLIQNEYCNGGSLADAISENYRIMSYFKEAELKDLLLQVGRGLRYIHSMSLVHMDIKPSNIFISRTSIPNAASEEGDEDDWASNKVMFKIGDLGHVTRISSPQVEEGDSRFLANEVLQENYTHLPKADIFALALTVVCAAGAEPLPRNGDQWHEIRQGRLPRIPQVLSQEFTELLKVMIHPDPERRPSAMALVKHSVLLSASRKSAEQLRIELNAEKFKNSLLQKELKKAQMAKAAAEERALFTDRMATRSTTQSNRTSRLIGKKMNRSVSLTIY
# UniProt O43353, sequence (whole entry, looked up): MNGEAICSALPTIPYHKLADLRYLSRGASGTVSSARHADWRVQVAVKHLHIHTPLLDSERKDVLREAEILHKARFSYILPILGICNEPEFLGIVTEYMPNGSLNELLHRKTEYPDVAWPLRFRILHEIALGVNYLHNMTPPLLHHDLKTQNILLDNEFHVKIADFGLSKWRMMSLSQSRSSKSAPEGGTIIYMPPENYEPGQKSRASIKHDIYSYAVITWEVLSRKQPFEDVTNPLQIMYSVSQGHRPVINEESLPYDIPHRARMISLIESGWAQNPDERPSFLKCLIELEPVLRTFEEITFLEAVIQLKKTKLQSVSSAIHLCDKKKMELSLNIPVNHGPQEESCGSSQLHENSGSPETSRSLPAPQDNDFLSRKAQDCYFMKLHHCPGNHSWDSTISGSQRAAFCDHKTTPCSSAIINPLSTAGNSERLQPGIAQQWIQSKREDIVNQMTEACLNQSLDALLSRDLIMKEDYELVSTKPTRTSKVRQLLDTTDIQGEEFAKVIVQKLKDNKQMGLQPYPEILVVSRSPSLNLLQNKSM
# UniProt Q9UBF8, sequence (whole entry, looked up): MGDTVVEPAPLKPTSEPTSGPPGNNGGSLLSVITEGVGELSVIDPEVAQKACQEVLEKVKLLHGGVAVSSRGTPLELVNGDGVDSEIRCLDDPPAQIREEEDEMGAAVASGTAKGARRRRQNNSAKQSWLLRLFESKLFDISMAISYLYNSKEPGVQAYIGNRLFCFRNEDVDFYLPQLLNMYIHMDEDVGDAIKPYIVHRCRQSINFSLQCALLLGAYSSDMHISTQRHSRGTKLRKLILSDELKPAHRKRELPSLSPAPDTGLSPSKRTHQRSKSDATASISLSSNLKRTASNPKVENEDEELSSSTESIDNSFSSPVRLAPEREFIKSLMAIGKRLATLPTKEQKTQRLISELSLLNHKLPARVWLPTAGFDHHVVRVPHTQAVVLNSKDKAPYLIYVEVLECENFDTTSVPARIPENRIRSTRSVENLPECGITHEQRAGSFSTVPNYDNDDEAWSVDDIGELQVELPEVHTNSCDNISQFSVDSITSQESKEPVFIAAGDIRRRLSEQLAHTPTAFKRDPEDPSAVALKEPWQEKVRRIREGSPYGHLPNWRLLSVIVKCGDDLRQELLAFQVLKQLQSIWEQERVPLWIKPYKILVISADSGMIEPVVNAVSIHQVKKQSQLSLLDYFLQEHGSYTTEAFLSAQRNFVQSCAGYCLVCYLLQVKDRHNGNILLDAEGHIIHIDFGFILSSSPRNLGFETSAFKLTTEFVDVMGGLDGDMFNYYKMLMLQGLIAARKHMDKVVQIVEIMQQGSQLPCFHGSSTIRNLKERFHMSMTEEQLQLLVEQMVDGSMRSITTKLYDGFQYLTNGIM
# UniProt Q8NFD2, sequence (whole entry, looked up): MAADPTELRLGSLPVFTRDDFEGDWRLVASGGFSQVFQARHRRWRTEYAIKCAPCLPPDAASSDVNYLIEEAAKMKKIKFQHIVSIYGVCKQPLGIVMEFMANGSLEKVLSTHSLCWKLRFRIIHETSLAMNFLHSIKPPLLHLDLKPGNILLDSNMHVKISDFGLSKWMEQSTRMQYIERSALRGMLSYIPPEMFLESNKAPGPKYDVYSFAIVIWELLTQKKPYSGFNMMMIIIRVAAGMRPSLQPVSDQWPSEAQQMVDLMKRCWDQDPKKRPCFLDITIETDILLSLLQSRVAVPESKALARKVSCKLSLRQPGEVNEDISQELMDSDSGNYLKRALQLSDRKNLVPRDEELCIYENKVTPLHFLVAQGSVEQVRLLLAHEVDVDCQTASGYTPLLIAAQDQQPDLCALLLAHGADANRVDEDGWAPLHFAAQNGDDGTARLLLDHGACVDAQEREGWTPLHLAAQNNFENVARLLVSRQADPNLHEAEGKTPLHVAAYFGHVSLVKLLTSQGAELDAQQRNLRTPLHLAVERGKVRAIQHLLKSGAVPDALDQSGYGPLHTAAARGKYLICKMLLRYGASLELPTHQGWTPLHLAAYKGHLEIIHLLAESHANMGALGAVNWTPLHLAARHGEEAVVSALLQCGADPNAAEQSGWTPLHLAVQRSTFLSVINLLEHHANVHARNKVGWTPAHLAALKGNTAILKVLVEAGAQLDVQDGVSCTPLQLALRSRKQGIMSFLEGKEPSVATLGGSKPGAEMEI
# UniProt P42685, sequence (whole entry, looked up): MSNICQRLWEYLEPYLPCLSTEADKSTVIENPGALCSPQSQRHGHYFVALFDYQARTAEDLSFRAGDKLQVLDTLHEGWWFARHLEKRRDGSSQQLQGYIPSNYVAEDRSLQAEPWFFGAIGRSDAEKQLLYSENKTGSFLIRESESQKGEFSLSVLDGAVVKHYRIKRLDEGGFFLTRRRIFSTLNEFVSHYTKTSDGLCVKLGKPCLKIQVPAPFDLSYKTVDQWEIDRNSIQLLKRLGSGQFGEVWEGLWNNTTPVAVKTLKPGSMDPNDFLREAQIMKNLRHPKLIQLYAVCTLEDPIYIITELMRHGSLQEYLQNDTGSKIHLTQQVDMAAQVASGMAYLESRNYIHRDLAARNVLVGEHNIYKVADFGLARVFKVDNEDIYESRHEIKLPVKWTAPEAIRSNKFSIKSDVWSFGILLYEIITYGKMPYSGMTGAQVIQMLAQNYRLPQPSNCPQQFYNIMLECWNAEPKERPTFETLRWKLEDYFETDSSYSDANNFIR
# UniProt P36896, sequence (whole entry, looked up): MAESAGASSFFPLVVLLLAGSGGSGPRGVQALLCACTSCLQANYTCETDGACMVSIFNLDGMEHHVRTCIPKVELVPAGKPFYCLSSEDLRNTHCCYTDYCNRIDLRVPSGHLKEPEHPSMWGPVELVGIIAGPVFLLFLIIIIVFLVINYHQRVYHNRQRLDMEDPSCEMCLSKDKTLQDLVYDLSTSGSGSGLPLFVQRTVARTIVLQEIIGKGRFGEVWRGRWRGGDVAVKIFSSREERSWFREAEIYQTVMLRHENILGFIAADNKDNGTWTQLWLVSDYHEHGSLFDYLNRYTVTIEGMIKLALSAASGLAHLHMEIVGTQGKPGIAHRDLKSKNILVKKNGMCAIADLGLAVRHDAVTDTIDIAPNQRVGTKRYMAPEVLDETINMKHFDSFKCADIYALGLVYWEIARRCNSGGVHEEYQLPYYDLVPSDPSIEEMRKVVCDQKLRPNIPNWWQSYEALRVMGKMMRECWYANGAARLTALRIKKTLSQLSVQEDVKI
# UniProt P27361, sequence (whole entry, looked up): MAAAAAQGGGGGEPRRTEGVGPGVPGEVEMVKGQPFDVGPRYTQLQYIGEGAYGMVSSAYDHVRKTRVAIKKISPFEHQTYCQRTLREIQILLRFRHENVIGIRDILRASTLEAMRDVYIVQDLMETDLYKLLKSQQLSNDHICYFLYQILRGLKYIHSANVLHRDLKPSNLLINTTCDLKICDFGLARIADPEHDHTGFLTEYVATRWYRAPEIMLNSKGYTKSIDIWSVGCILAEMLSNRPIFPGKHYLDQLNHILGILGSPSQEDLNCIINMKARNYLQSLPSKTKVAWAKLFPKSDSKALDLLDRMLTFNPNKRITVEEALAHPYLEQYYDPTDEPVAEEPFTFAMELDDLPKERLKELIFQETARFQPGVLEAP

# Block 1
# Target: TAR DNA-binding protein 43, full length, His tag (TARDBP, Homo sapiens, UniProt Q13148, residues 1-414)
# Technique: RNA Bind-n-Seq
# Molecule type: RNA
# Medium: in vitro
# Tested at: 20 nM
# Notes: 6-mer, flanks averaged, single round
# Added: 150 mM KCl
# Relative to: input library
# Direction: higher = stronger binding
Sequence,6-mer enrichment (R)
GGAAAC,0.925
CAGUUA,0.611
CACGAG,0.991
ACAGCU,0.636
AGACUG,0.893
GUGUAU,1.1
CACUGG,0.99
CACGGA,0.936

# Block 2
# Structure (SMILES): COc1ccc(Cl)cc1NC(=O)Nc1cc(C)nc2ccccc12
# Read-out: enzyme activity
# Action: inhibitor
# Tested at: 0.5 µM
# Relative to: control
target,remaining activity
"Casein kinase I isoform gamma-3 (CSNK1G3, Homo sapiens, UniProt Q9Y6M4)",95.7%
"Serine/threonine-protein kinase Nek1 (NEK1, Homo sapiens, UniProt Q96PY6)",96.3%
"Wee1-like protein kinase (WEE1, Homo sapiens, UniProt P30291)",89%
"Mitogen-activated protein kinase 3 (MAPK3, Homo sapiens, UniProt P27361)",94.6%
"Activin receptor type-1B (ACVR1B, Homo sapiens, UniProt P36896)",97.4%
"Serine/threonine-protein kinase A-Raf (ARAF, Homo sapiens, UniProt P10398)",92.4%
"Tyrosine-protein kinase FRK (FRK, Homo sapiens, UniProt P42685)",98.4%

# Block 3
# Target: Prothrombin, mature alpha-thrombin (F2, Homo sapiens, UniProt P00734)
# Technique: aptamer microarray, sandwich
# Molecule type: DNA with 2'F-ANA
# Medium: in vitro
# Tested at: 200 nM
# Notes: whole 15-mer aptamer, many near background
# Added: Cy3 exosite-II aptamer, 400 nM
# Direction: higher = stronger binding
# Sequence: GGTTGGTGTGGTTGG
Modification,mean fluorescence intensity [a.u.]
2'F-ANA at 1 2 3 5 9 10 13,45.2
2'F-ANA at 6 8 12,925
2'F-ANA at 1 3 5 6 9 12 14 15,47.2
2'F-ANA at 6 7 8 9 12 13,642
2'F-ANA at 4 5 6 9 10 11 12 13 15,82.5
2'F-ANA at 1 3 4 5 8 9 10 12 14 15,111
2'F-ANA at 4 5 8 9 12,168
2'F-ANA at 3 4 9 12 14,335

# Block 4
# SMILES: NS(=O)(=O)c1cc(NC(=O)Cc2ccccc2)ccc1Oc1cccc(Cl)c1
# Read-out: cell-free assay
# Technique: competition with immobilised ligand
# Tested at: 1 µM
target,remaining binding
"Mitogen-activated protein kinase 6 (MAPK6, Homo sapiens, UniProt Q16659)",98%
"Serine/threonine-protein kinase 24 (STK24, Homo sapiens, UniProt Q9Y6E0)",82%
"Serine/threonine-protein kinase 17B (STK17B, Homo sapiens, UniProt O94768)",100%
"Receptor-type tyrosine-protein kinase FLT3 (FLT3, Homo sapiens, UniProt P36888, R834Q)",91%
"ALK tyrosine kinase receptor (ALK, Homo sapiens, UniProt Q9UM73)",100%
"Mitogen-activated protein kinase 4 (MAPK4, Homo sapiens, UniProt P31152)",91%
"Receptor-type tyrosine-protein kinase FLT3 (FLT3, Homo sapiens, UniProt P36888, N841I)",55%
"Death-associated protein kinase 1 (DAPK1, Homo sapiens, UniProt P53355)",90%
"Receptor-interacting serine/threonine-protein kinase 2 (RIPK2, Homo sapiens, UniProt O43353)",94%
"Tyrosine-protein kinase SYK (SYK, Homo sapiens, UniProt P43405)",66%
"Phosphatidylinositol 4-kinase beta (PI4KB, Homo sapiens, UniProt Q9UBF8)",55%
"Cyclin-dependent kinase 4 (CDK4, Homo sapiens, UniProt P11802)",88%
"Mitogen-activated protein kinase kinase kinase kinase 1 (MAP4K1, Homo sapiens, UniProt Q92918)",91%
"Macrophage colony-stimulating factor 1 receptor (CSF1R, Homo sapiens, UniProt P07333)",87%
"Ankyrin repeat and protein kinase domain-containing protein 1 (ANKK1, Homo sapiens, UniProt Q8NFD2)",78%

# Excerpt of the above (block 4):
target,remaining binding
"Serine/threonine-protein kinase 17B (STK17B, Homo sapiens, UniProt O94768)",100%
"Mitogen-activated protein kinase kinase kinase kinase 1 (MAP4K1, Homo sapiens, UniProt Q92918)",91%
"ALK tyrosine kinase receptor (ALK, Homo sapiens, UniProt Q9UM73)",100%
"Mitogen-activated protein kinase 6 (MAPK6, Homo sapiens, UniProt Q16659)",98%
"Death-associated protein kinase 1 (DAPK1, Homo sapiens, UniProt P53355)",90%
"Cyclin-dependent kinase 4 (CDK4, Homo sapiens, UniProt P11802)",88%
